Measurements gathered from unrelated publications.
± marks the error that the study gave.
UniProt Q8NEB9, sequence (whole entry, looked up): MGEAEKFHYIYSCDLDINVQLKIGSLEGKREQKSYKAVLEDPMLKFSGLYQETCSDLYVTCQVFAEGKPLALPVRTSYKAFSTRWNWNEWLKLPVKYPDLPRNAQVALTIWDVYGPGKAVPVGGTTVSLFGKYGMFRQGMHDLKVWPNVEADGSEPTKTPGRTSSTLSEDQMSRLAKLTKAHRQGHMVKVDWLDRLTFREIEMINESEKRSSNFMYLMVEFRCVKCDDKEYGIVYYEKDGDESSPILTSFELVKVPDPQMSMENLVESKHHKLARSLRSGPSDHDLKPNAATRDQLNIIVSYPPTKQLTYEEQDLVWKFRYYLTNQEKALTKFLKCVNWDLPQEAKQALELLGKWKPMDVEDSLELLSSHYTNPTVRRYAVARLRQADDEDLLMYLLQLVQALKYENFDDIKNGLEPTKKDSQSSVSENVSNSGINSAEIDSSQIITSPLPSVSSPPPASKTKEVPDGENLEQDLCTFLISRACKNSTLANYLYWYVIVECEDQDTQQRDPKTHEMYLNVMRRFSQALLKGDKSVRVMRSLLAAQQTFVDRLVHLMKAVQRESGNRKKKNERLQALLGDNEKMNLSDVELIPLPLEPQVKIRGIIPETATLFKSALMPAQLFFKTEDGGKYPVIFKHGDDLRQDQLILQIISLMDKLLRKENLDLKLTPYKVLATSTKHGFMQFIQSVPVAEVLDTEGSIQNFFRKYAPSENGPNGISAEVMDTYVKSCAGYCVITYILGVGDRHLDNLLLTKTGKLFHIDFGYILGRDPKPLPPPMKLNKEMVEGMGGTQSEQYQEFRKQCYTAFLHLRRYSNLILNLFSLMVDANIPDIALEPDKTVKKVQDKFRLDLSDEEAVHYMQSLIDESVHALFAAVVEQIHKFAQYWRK
UniProt P49761, sequence (whole entry, looked up): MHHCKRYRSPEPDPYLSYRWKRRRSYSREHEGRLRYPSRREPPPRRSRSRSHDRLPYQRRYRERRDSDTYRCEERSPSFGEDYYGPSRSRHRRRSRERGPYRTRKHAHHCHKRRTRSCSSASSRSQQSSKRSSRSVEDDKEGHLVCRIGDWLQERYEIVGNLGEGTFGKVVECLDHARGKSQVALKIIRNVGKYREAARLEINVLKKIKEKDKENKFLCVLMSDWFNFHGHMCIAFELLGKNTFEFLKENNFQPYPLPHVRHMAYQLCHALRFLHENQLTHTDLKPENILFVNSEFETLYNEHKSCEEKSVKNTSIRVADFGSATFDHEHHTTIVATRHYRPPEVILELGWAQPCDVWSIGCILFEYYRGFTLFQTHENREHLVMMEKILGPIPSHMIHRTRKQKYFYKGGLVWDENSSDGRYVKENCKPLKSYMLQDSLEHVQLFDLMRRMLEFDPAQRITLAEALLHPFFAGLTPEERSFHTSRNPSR
UniProt P08631, sequence (whole entry, looked up): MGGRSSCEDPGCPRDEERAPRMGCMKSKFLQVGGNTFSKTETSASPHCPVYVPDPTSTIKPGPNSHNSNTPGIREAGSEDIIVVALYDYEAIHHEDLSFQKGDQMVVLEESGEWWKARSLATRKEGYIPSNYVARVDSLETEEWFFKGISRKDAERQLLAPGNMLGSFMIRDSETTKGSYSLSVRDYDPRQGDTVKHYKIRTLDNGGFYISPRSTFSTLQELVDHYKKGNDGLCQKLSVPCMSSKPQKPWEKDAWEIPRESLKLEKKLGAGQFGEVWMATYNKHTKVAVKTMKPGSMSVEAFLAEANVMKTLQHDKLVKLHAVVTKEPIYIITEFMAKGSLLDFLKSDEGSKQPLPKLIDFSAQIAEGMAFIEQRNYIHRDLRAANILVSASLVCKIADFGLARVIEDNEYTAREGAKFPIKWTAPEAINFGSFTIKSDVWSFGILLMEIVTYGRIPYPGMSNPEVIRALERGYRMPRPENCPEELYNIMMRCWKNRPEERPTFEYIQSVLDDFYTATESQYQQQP
UniProt Q9NYY3, sequence (whole entry, looked up): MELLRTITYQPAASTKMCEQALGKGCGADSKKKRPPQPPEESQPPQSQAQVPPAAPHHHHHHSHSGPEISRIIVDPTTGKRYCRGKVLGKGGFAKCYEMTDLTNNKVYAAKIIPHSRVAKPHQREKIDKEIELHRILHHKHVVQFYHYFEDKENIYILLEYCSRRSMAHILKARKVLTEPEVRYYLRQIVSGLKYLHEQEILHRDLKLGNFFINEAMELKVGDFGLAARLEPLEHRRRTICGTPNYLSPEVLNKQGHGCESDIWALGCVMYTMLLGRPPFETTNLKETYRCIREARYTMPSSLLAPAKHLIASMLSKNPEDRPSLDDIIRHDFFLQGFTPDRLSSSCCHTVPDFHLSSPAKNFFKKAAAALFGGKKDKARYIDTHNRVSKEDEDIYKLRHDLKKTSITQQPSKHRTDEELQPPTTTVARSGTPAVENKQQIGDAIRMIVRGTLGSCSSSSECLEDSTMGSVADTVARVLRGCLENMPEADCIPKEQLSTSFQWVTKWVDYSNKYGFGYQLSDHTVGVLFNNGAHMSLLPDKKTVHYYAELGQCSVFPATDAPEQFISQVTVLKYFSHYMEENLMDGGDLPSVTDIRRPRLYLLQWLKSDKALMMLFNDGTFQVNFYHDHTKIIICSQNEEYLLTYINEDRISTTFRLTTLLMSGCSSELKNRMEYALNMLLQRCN
UniProt P32245, sequence (whole entry, looked up): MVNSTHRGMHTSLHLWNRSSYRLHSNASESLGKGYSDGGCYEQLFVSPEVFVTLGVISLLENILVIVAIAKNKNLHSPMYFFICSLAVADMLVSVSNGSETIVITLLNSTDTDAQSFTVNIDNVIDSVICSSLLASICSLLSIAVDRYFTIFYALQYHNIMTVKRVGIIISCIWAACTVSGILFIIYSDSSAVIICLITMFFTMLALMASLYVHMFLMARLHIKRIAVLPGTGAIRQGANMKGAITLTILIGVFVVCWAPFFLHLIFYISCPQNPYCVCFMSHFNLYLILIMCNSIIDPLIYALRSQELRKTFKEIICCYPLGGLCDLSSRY
UniProt P47901, sequence (whole entry, looked up): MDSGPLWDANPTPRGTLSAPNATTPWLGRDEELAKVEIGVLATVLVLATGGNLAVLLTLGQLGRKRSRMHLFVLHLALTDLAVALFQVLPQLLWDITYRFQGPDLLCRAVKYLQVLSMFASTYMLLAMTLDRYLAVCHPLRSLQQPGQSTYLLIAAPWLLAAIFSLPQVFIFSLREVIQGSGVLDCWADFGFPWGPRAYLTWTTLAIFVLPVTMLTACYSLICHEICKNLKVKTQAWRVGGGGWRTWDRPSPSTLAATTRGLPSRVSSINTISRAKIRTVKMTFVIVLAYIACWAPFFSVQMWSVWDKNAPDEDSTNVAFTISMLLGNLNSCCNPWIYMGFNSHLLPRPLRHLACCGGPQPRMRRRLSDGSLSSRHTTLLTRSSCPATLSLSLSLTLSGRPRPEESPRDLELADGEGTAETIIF
UniProt Q9UM07, sequence (whole entry, looked up): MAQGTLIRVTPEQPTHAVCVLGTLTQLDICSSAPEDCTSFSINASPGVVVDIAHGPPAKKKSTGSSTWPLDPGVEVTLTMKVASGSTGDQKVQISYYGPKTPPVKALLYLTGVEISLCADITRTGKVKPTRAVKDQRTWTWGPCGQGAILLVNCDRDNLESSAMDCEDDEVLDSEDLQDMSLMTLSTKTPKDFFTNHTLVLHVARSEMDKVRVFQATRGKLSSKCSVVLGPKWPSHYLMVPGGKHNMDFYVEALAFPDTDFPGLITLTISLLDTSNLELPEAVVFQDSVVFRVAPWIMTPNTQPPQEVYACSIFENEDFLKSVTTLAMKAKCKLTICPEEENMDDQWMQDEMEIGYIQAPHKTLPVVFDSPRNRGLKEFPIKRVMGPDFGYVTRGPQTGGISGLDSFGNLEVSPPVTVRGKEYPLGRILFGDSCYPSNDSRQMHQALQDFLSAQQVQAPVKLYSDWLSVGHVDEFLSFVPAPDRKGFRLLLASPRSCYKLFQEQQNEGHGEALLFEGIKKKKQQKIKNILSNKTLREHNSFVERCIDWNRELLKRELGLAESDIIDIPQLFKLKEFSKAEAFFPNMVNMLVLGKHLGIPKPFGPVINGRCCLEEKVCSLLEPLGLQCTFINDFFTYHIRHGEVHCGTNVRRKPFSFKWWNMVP
UniProt Q9Y6M4, sequence (whole entry, looked up): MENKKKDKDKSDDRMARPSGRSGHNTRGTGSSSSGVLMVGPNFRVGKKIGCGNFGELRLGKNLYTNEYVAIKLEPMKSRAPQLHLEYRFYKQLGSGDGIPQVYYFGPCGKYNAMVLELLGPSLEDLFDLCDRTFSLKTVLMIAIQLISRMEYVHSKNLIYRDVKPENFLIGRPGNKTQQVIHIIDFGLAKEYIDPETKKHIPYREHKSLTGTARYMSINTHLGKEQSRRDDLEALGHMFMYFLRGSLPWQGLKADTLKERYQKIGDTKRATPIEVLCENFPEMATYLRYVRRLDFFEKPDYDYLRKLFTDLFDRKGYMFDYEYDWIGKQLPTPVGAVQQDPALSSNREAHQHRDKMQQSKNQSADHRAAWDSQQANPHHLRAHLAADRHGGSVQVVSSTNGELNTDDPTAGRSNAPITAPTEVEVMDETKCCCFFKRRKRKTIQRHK

With `O=C(O)c1ccccc1/C=N/Nc1nc(-c2ccccc2Cl)cs1` the inhibition was -10.3% (Tyrosine-protein kinase HCK (HCK, Homo sapiens, UniProt P08631); enzyme activity, inhibitor; 1 µM).
With `O=C(CN1CN(c2ccccc2)C2(CCN(C(=O)c3cnc4[nH]ncc4c3)CC2)C1=O)NCC(F)(F)F` the inhibition was under 50% (Serine/threonine-protein kinase PLK2 (PLK2, Homo sapiens, UniProt Q9NYY3); inhibitor; concentration not given).
For `O=C1NC2(CC2)COc2ncc(F)cc2[C@H]2COCCN2c2ccn3ncc1c3n2`, “organ-to-body weight ratio” read 0.678 ± 0.051% (Sprague-Dawley rat, female, kidneys; oral, 20 mg/kg/day, 4 weeks, end of treatment).
The inhibition of `CN(C)[C@H]1C[C@@]23CC[C@@]4(O2)C(=CC[C@]2(C)[C@@H](c5ccc6ccncc6c5)CC[C@H]24)C=C3[C@@H](O)[C@@H]1O` is reported as -4.6% (Phosphatidylinositol 3-kinase catalytic subunit type 3 (PIK3C3, Homo sapiens, UniProt Q8NEB9); ATP probe labelling, inhibitor, KiNativ profiling; 1 µM).
`CS(C)(=O)=Nc1ccc(-c2ccc(-c3nc4cc(O[C@@H]5CO[C@H]6[C@@H]5OC[C@H]6O)[nH]c4cc3F)cc2)cc1` gave an inhibition of 7% (Vasopressin V1b receptor (AVPR1B, Homo sapiens, UniProt P47901); ligand displacement, radioligand; 10 µM).
`C[C@H](NCc1ccc(-c2ccc(C(F)(F)F)cc2)cc1)C(N)=O` has an inhibition of 16% (L-type calcium channel phenylalkylamine site, rat; binding, radioligand binding; biochemical; 1 µM, with: [3H]desmethoxyverapamil 0.40 nM).
For `CC(C)[C@H]1NC(=O)C[C@H]2/C=C/CCSSC[C@@H](NC1=O)C(=O)N[C@H](Cc1cccc3ccccc13)C(=O)NCC(=O)O2`, the inhibition was 1.8% (Dual specificity protein kinase CLK3 (CLK3, Homo sapiens, UniProt P49761); enzyme activity, inhibitor; 10 µM).
`COc1ccc(F)cc1S(=O)(=O)Nc1cnc2c(c1)C(=O)NCCO2` gave an inhibition of 1% (Melanocortin receptor 4 (MC4R, Homo sapiens, UniProt P32245); ligand displacement, radioligand; 10 µM).
With `CN(/N=C/c1ccccc1C(=O)O)c1nc(-c2ccccc2Cl)cs1` the inhibition was -29.5% (Casein kinase I isoform gamma-3 (CSNK1G3, Homo sapiens, UniProt Q9Y6M4); enzyme activity, inhibitor; 1 µM).
The inhibition of `N[C@H](C(=O)N1CCCC1)C1CCN(c2nccc3c(-c4ncc(Cl)cc4Cl)cccc23)CC1` is reported as 104% (Protein-arginine deiminase type-4 (PADI4, Homo sapiens, UniProt Q9UM07); enzyme activity, inhibitor; 9.6 µM, with: Ca2+ 0.25 mM).

Some of these lines once more:
For `O=C1NC2(CC2)COc2ncc(F)cc2[C@H]2COCCN2c2ccn3ncc1c3n2`, “organ-to-body weight ratio” read 0.678 ± 0.051% (Sprague-Dawley rat, female, kidneys; oral, 20 mg/kg/day, 4 weeks, end of treatment).
